Measured values from different studies.
Numbered parts are unrelated; each lists some results of a single study. “And” joins repeats or separate records; there may be more than shown.

Series 1 — observed: RNA clamping; technique: fluorescence polarization; tested at: concentration not given; with: FAM-labelled poly r(AG)8 RNA; endpoint: fluorescence polarization change
Target: Eukaryotic initiation factor 4A-III (Homo sapiens, UniProt P38919)
Sequence of UniProt P38919 (whole entry, looked up): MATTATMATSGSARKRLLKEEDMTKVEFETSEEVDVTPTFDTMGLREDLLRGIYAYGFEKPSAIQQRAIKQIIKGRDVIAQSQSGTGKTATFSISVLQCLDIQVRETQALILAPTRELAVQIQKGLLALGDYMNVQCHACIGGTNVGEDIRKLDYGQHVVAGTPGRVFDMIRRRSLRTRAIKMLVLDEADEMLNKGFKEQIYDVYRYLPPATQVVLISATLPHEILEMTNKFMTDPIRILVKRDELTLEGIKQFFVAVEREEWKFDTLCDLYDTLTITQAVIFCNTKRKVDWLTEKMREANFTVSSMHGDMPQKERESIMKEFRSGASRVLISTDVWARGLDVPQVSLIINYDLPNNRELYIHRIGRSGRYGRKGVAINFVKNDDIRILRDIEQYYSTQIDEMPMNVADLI
COC(=O)[C@@H]1[C@@H](c2ccccc2)[C@]2(c3ccc(OC)cc3)Oc3cc(OC)cc(OC)c3[C@@]23NC(C(F)(F)F)=N[C@@]13O: 11.2 mP
COc1ccc([C@]23Oc4cc(OC)cc(OC)c4[C@](O)([C@H]2O)[C@@H](C(=O)N(C)OC)[C@@H]3c2ccccc2)cc1: -1.3 mP
COc1ccc([C@@]23Oc4cc(OC)cc(OC)c4[C@]2(NCc2ccccc2)C(=O)C[C@H]3c2ccccc2)cc1: 9.6 mP
C#CCNC(=O)COc1cc(OC)c2c(c1)O[C@@]1(c3ccc(OC)cc3)[C@H](c3ccccc3)c3c(nc(-c4ccccc4)[nH]c3=O)[C@@]21O: 8.8 mP
O[C@@H]1C2(O)c3ccccc3O[C@]1(c1ccccc1)[C@@H](/C=C/c1ccccc1)[C@@H]2c1ccccc1: 8.2 mP
COC(=O)[C@@H]1[C@@H](c2ccccc2)[C@]2(c3ccc(OC)cc3)Oc3cc(OC)cc(OC)c3[C@@]23NC(Cc2ccccc2)=N[C@@]13O: 23.4 mP and 13.6 mP
COc1ccc([C@@]23Oc4cc(OC)cc(OC)c4[C@]2(O)[C@H](O)[C@H](C(=O)c2ccccc2OC)[C@H]3c2ccccc2)cc1: 5.8 mP
C#CCCC(=O)O[C@@H]1[C@H](C(=O)c2ccco2)[C@@H](c2ccccc2)[C@]2(c3ccc(OC)cc3)Oc3cc(OC)cc(OC)c3[C@]12O: 6.7 mP
COc1cc(OC)c2c(c1)O[C@@]1(c3ccc(Br)cc3)[C@H](c3ccccc3)C3=C(O[C@@H]4CCCN4C3=O)[C@@]21O: 51.6 mP

Series 2 — organism: Sarcocystis neurona; observed: parasite growth; tested at: 10 µM; time: 96 h; endpoint: inhibition
Cc1ccc(Cl)c(Nc2ccccc2C(=O)O)c1Cl: -16.7%
OCCN1C[C@H](O)[C@@H](O)[C@H](O)[C@H]1CO: -6.2%
O=C1c2c(O)cc(O)cc2OC(c2ccc(O)c(O)c2)C1O (stereo not drawn): -7.4%
NC(=O)c1cnccn1: -14.8%
CN1[C@@H]2C[C@@H](OC(=O)[C@H](CO)c3ccccc3)C[C@H]1[C@@H]1O[C@@H]12: -18%
CC[C@H](C)C(=O)O[C@H]1C[C@H](O)C=C2C=C[C@H](C)[C@H](CC[C@@H](O)C[C@@H](O)CC(=O)O)[C@H]21: -4.8%
Cc1cccc(C)c1NC(=O)C(C)N (stereo not drawn): -0.8%
CCOC(=O)[C@@]1(CCCCCCOc2ccc(Cl)cc2)CO1: -16.5%
CC1(C)S[C@@H]2[C@H](NC(=O)[C@H](N)c3ccccc3)C(=O)N2[C@H]1C(=O)O: -11%
O=c1[nH]cnc2c1ncn2[C@H]1CC[C@@H](CO)O1: -12.8%
CN1CCN(CCCN2c3ccccc3Sc3ccc(C(F)(F)F)cc32)CC1: -2.1%
CCc1ccc(CCOc2ccc(CC3SC(=O)NC3=O)cc2)nc1 (stereo not drawn): -10.5%
CC1(C)O[C@@H]2C[C@H]3[C@@H]4C[C@H](F)C5=CC(=O)C=C[C@]5(C)[C@@]4(F)[C@@H](O)C[C@]3(C)[C@]2(C(=O)CO)O1: -2.9%
CC(=O)OCC(CCn1cnc2cnc(N)nc21)COC(C)=O: -10.6%
CCCCc1nc(Cl)c(CO)n1Cc1ccc(-c2ccccc2-c2nn[nH]n2)cc1: -13.9%
O=C(O)c1cc(/N=N/c2ccc(S(=O)(=O)Nc3ccccn3)cc2)ccc1O: -16.4%

Series 3 — observed: enzyme activity; mode: inhibitor; tested at: 0.5 µM; baseline: control; endpoint: remaining activity
Target: Interleukin-1 receptor-associated kinase 1 (IRAK1, Homo sapiens, UniProt P51617)
Sequence of UniProt P51617 (whole entry, looked up): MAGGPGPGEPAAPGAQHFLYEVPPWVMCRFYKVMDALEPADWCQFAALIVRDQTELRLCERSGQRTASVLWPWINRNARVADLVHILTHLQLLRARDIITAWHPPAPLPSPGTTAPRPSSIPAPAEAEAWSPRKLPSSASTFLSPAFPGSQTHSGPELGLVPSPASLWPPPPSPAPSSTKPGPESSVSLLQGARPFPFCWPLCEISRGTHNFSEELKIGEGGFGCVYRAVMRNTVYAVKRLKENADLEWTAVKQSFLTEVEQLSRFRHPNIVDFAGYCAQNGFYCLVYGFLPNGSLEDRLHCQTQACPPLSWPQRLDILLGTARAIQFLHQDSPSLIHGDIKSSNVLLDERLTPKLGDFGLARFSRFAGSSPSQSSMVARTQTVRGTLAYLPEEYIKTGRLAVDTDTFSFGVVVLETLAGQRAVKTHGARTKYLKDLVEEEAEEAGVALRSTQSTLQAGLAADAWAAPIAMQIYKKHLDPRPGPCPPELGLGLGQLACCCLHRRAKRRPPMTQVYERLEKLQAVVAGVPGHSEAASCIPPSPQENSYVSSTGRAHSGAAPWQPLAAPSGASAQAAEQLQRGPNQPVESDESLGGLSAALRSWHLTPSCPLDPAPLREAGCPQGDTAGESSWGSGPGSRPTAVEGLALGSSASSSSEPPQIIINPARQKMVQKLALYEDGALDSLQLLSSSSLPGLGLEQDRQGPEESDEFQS
COc1cc2ncnc(N3CCN(C(=O)Nc4ccc(Oc5ccccc5)cc4)CC3)c2cc1OC: 116%
O=C1NC(=O)/C(=C/c2ccc3nccnc3c2)S1: 85.5%
COc1ccc(Cl)cc1NC(=O)Nc1cc(C)nc2ccccc12: 91.2%
CC(=O)O/N=C1/C(c2c(O)[nH]c3cc(Br)ccc23)=Nc2ccccc21: 67.4%
Cc1ccc(NC(=O)c2ccc(CN3CCN(C)CC3)cc2)cc1Nc1nccc(-c2cccnc2)n1: 99.7%
O=c1cc(N2CCOCC2)oc2c1ccc1ccccc12: 112%
CN(C)CCCn1cc(C2=C(c3c[nH]c4ccccc34)C(=O)NC2=O)c2ccccc21: 91.1%
CCN1/C(=C/C(C)=O)Sc2ccc(OC)cc21: 114%
CC(C)[C@H](CO)Nc1nc(Nc2cccc(Cl)c2)c2ncn(C(C)C)c2n1: 109%
Cn1cc(/C=C2\C(=O)Nc3ccc(S(N)(=O)=O)cc32)c2ccccc21: 14.2%
Nc1[nH]nc2nnc(-c3c(-c4ccccc4)nn4ccccc34)cc12: 105%
CC(C)c1nn(-c2c(Cl)cccc2Cl)c2nc(Cc3ccc(OCCO)cc3)[nH]c(=O)c12: 99.2%
COc1cc2ncc(-c3ccccc3)nc2cc1OC: 98.4%
CS(=O)(=O)CCNCc1ccc(-c2ccc3ncnc(Nc4ccc(OCc5cccc(F)c5)c(Cl)c4)c3c2)o1: 98.8%
Cn1cnc2cc3c(Nc4cccc(Br)c4)ncnc3cc21: 80.5%
CCC(=O)Nc1ccc2ncnc(Nc3cccc(Br)c3)c2c1: 92.7%
COc1ccc(-c2cnc3c(-c4ccsc4)cnn3c2)cc1: 94%
C[S+]([O-])c1ccc(-c2nc(-c3ccncc3)c(-c3ccc(F)cc3)[nH]2)cc1 (stereo not drawn): 129%
O=C(Nc1ccc(Cl)cc1)c1ccccc1NCc1ccncc1: 117%
COc1cc2ncnc(Nc3ccc(OCc4ccccc4)cc3)c2cc1OC: 97.4%
Cc1nc(Nc2ncc(C(=O)Nc3c(C)cccc3Cl)s2)cc(N2CCN(CCO)CC2)n1: 98.2%
CCOc1cc2ncnc(Nc3cccc(Br)c3)c2cc1OCC: 95.1%

Series 4 — observed: radioligand binding; technique: radioligand displacement; tested at: 10 µM; endpoint: inhibition
Target: Translocator protein (Tspo, Rattus norvegicus, UniProt P16257)
Sequence of UniProt P16257 (whole entry, looked up): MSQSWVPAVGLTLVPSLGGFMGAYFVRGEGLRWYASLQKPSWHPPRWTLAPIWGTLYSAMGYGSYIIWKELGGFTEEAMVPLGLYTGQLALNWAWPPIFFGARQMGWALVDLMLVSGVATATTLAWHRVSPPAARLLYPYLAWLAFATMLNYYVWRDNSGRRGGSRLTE
c1ccc(C2CCN(c3cnc4c(N5CCOCC5)nccn34)CC2)cc1: -22.8%
COc1ccc2c(O[C@@H]3C[C@H]4C(=O)N[C@]5(C(=O)O)CC5/C=C\CCCCC[C@H](NC(=O)OC5CCCC5)C(=O)N4C3)cc(-c3csc(NC(=O)C(C)C)n3)nc2c1C (stereo partly drawn): -18.6%
Cc1cc(-n2nc(Cc3cc(F)cc(C(F)(F)F)c3)nc2C)ccc1C(N)=O: 7.23%
N#CC1(c2ccccn2)CCN(Cc2cc(C(=O)N3CCCC3)c(=O)n3ccccc23)CC1: 46.5%
Cc1c(NC(=O)c2cc(C(N)=O)nc3cc(F)ccc23)c(C(F)(F)F)nn1Cc1ccc(C#N)cc1: -1.8%
CC(=O)N1CCC(c2ccc(C(=O)NC3=NCCN3)cc2C(F)(F)F)CC1: -2.17%
CS(=O)(=O)c1cc(C2(NC(=O)c3cncc4c3cnn4-c3ccc(F)cc3)CC2)ccn1: 17.9%
O=C(NNS(=O)(=O)c1ccccc1F)c1cc(F)cc(-c2ccccn2)c1: 47%
NC(=O)c1ccc2nc(-c3ccc(C4(N)CCC4)cc3)c(-c3ccccc3)n2n1: 40.5%
CSc1cccnc1N1CCN(Cc2nc3ccccc3[nH]2)CC1: -16.4%
CCOc1cc(N2C3COCC2CN(C(=O)[C@H]2C[C@H](O)CN2c2ccc(Cl)cc2)C3)ccc1Cl: 54.2%
O=C1CCc2cc(Nc3cc(OC4CCOCC4)c([N+](=O)[O-])cc3Cl)ccc2N1: 13.4%
Cc1nc(C2CCN(C(=O)c3ccc(OC(F)(F)F)cc3N)CC2)c2ncc(N3CCN(C)CC3)cc2n1: -4.32%
C[C@H](c1ccnc(Nc2nc3ccc(-c4cc(N(C)C)ncn4)cc3[nH]2)c1)N1CCN(C(=O)CC(F)(F)F)CC1: -2.73%
CNC(=O)Nc1ccc2c(c1)CC[C@@]21OC(=O)N(CC(=O)N(Cc2ccc(F)cc2)[C@@H](C)C(F)(F)F)C1=O: 60%
COc1cc(-c2cn(C3CCc4ccccc4N(CC(F)(F)F)C3=O)nn2)ccc1-n1ccc(C)n1 (stereo not drawn): 59.5%
CCCOc1ccc([C@H]2[C@H](C(=O)O)[C@@H](c3ccc4c(c3)OCO4)CN2CC(=O)Nc2c(CC)cccc2CC)cc1: 16.5%
O=C1c2ccc(Nc3ccc(F)cc3F)cc2CCc2ccc(OC[C@H](O)CO)cc21: -20.4%
Nc1nc(NCc2ccccc2)nc(-c2cccc(CO)c2)n1: -14.9%
NS(=O)(=O)c1cc(NC(=O)Cc2ccccc2)ccc1Oc1cccc(Cl)c1: 5.06%
CC(C)(C)OC(=O)N1CCCC1CNC1CCC(c2cc(F)ccc2F)(S(=O)(=O)c2ccc(Cl)cc2)CC1 (stereo not drawn): -11.2%
CN1CCN(c2cnc3c(C4CCN(C(=O)c5ccc(OC(F)(F)F)cc5N)CC4)ncnc3c2)CC1: -10.4%
Cn1nc(C(F)(F)F)cc1-c1cnc(N2CCc3cc(S(=O)(=O)Nc4c(F)cc(Cl)cc4F)cc(N4CCCC4=O)c32)nc1: -9.93%
CN(C)C(=O)Cn1cc(-c2nc([C@@](C)(c3ccc(-c4cnc(N)nc4)cc3)C3CC3)no2)cn1: 1.51%
CCC(=O)N[C@H]1CC[C@@H](C(=O)N(C)c2ccc(-c3nc4ccccc4o3)cc2)C1: 3.17%

For quick reference, copied from above (series 4):
N#CC1(c2ccccn2)CCN(Cc2cc(C(=O)N3CCCC3)c(=O)n3ccccc23)CC1: 46.5%
Cc1c(NC(=O)c2cc(C(N)=O)nc3cc(F)ccc23)c(C(F)(F)F)nn1Cc1ccc(C#N)cc1: -1.8%
CC(=O)N1CCC(c2ccc(C(=O)NC3=NCCN3)cc2C(F)(F)F)CC1: -2.17%
CS(=O)(=O)c1cc(C2(NC(=O)c3cncc4c3cnn4-c3ccc(F)cc3)CC2)ccn1: 17.9%
O=C(NNS(=O)(=O)c1ccccc1F)c1cc(F)cc(-c2ccccn2)c1: 47%
NC(=O)c1ccc2nc(-c3ccc(C4(N)CCC4)cc3)c(-c3ccccc3)n2n1: 40.5%
CSc1cccnc1N1CCN(Cc2nc3ccccc3[nH]2)CC1: -16.4%
CCOc1cc(N2C3COCC2CN(C(=O)[C@H]2C[C@H](O)CN2c2ccc(Cl)cc2)C3)ccc1Cl: 54.2%
O=C1CCc2cc(Nc3cc(OC4CCOCC4)c([N+](=O)[O-])cc3Cl)ccc2N1: 13.4%
Cc1nc(C2CCN(C(=O)c3ccc(OC(F)(F)F)cc3N)CC2)c2ncc(N3CCN(C)CC3)cc2n1: -4.32%
C[C@H](c1ccnc(Nc2nc3ccc(-c4cc(N(C)C)ncn4)cc3[nH]2)c1)N1CCN(C(=O)CC(F)(F)F)CC1: -2.73%
CNC(=O)Nc1ccc2c(c1)CC[C@@]21OC(=O)N(CC(=O)N(Cc2ccc(F)cc2)[C@@H](C)C(F)(F)F)C1=O: 60%
